Experimental data from different studies.
Each numbered part is a random draw from the data of one study; scales do not carry over between parts.

Block 1 — method: aptamer microarray, sandwich; molecule type: DNA with 2'F-ANA; sample: in vitro; tested at: 200 nM; together with: Cy3 exosite-II aptamer, 400 nM; direction: higher = stronger binding; sequence: GGTTGGTGTGGTTGG
Target: Prothrombin, mature alpha-thrombin (F2, Homo sapiens, UniProt P00734)
Notes: whole 15-mer aptamer, many near background
| Modification | mean fluorescence intensity |
| --- | --- |
| 2'F-ANA at 3 4 5 7 10 11 12 | 59.7 a.u. |
| 2'F-ANA at 1 3 5 7 9 11 14 15 | 43.9 a.u. |
| 2'F-ANA at 1 8 10 11 12 14 | 105 a.u. |
| 2'F-ANA at 1 3 6 8 12 13 15 | 471 a.u. |
| 2'F-ANA at 2 3 4 7 8 9 10 11 14 | 253 a.u. |
| 2'F-ANA at 1 3 5 6 10 11 13 | 49.3 a.u. |
| 2'F-ANA at 4 9 10 | 90.9 a.u. |
| 2'F-ANA at 2 3 5 9 10 11 14 15 | 69.3 a.u. |
| 2'F-ANA at 1 2 4 6 15 | 124 a.u. |
| 2'F-ANA at 1 2 3 8 10 15 | 87.6 a.u. |
| 2'F-ANA at 4 5 6 9 10 11 12 14 | 47.3 a.u. |
| 2'F-ANA at 3 7 8 10 12 14 15 | 470 a.u. |
| 2'F-ANA at 2 3 8 10 11 12 13 14 15 | 262 a.u. |
| 2'F-ANA at 1 2 4 5 7 12 13 14 15 | 124 a.u. |
| 2'F-ANA at 3 5 7 8 9 12 13 | 222 a.u. |
| 2'F-ANA at 1 2 5 6 8 10 12 15 | 53.4 a.u. |
| 2'F-ANA at 1 3 4 9 11 13 14 15 | 58.2 a.u. |
| 2'F-ANA at 1 3 4 5 9 11 12 15 | 95.7 a.u. |
| 2'F-ANA at 3 5 9 12 13 14 | 94.2 a.u. |
| 2'F-ANA at 1 3 4 5 6 7 9 12 14 | 53.3 a.u. |
| 2'F-ANA at 1 6 8 12 13 14 15 | 73.4 a.u. |
| 2'F-ANA at 1 5 6 9 10 11 12 15 | 128 a.u. |
| 2'F-ANA at 1 2 4 7 12 14 15 | 87.1 a.u. |
| 2'F-ANA at 1 3 4 5 6 7 9 11 12 13 14 15 | 50.9 a.u. |
| 2'F-ANA at 3 5 10 14 15 | 53.3 a.u. |

Block 2 — method: RNA Bind-n-Seq; molecule type: RNA; sample: in vitro; tested at: 365 nM; baseline: no-protein control; direction: higher = stronger binding
Target: RNA binding protein fox-1 homolog 2, RRM domain, GST-SBP tag (RBFOX2, Homo sapiens, UniProt O43251-10, residues 100-194)
Notes: natural RNA segment, single round, ends assumed
Construct (chain): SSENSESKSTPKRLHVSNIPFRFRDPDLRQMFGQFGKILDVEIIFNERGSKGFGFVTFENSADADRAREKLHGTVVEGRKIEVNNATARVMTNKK
| Sequence | RBNS enrichment (R) |
| --- | --- |
| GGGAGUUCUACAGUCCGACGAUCACCUUGUGGCCGCCUGAGACCCUCGCGCCCCCCGCGCCCCUCUUUUUCCCCUUGAUGGAAAUUGACCAUACAAUUUCAUCCUCCUUCAGGGGAUCAAAAGGACGGAGUGGUGGAAUUCUCGGGUGCCAA | 0.243 |
| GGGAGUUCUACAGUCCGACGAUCGGGAGACCCAGAGUUCAGGCUACACACAGCUGUAAAACAGCCCCAAUCCUGACUCUGGCUAUUCGCUUCCCACCCUCUCCUUUCACUGUGAUGUGUUCCAGGUUUAGCCUUGGAAUUCUCGGGUGCCAA | 0.248 |
| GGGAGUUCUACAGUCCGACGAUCACAGAAGCAUCAAGGGAGCCCAGUCUAAACUCCUAGGGUUGGCCGCCCACUUGAUCCAGACCGUACUGAGUGUCAGAUGGAGAGGAUGCUUGGAAAGCUAGGAAGGCUGCUGGAAUUCUCGGGUGCCAA | 0.779 |
| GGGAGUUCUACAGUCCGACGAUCUAAGAAAAGCUUGGUAGGAGCUUGCUGCUAUGGAGGAAAGAACAUAUUAAAAACUUAUUUUCCCUCGGGUUUGUUCUCGUUUUAUGUUUUUGUUGUUGUUGUUUUGUUAGUGGAAUUCUCGGGUGCCAA | 0.638 |
| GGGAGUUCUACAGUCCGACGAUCUAAUCUUGCUGUCUGCCUUCCUAGCCUUUUCCACCUUGGCUUGCCUCUGAGGGUAGAUUUUUUUUUUUAAUCCGGUCCCUUGGAUUUAAAAAUAAAAUUAAUUUUCUGUUUGGAAUUCUCGGGUGCCAA | 0.572 |
| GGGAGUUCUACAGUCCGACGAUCUUAACUCGUUCAAAUAAUGUGGUCAUAACUUACACAUUUAAGCGUAUAUUGGAAUUGUUAACUCAAAUUGUAGUCAAAAAAAAAAAAUCAGGAAUUUUGUCCGUGUAUAAUGGAAUUCUCGGGUGCCAA | 1.61 |
| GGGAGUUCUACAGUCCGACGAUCUGUCUGUUAGUAGUGCUGUAGAUUAAGUCUUUCCAAAGCACCUAGGCAGUGCACCUAUUCUGUAGUUGCAGCUAUUGCCUGAAUGUACCUUAGCUGACAAAUUAUUGAUAUGGAAUUCUCGGGUGCCAA | 0.658 |
| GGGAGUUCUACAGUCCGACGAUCUCUAUUUUUAAAUCUUCUCUUAAAUAUACUGAGAAUCUCUAGUCUCCUUUUCUAAAGGCUGAUCCAACUACACUUGUGGGCUAUUUUUCCAAGCUUUGUGUGAAACUUGAUGGAAUUCUCGGGUGCCAA | 0.576 |
| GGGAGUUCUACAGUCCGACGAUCCGUGUUUGCAUUCUUGUUAAUUUUUUUUUUGGCUUUGGAAUGUGACACAGCCUUUUUGAUCAUUUCUUUGAUGUGAAAAGCAUCUUUGGUUAUCAGUUAAAUUGAGGUGGUGGAAUUCUCGGGUGCCAA | 0.438 |
| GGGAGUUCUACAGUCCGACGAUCAUAUAUUUCCUAAAAUCUUUUUAAAGUGAAUUUAUAUGUGCACAUAUGUGUGUGUAGGGGGAGGAUAAGAACUGAAUUAUUUGAAACAGGUUAUUAUUUGAAACUGUAUUUGGAAUUCUCGGGUGCCAA | 0.661 |
| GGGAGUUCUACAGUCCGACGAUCUGGAUUGCCUAACUACACUGCUAAAAAUAUUUGUAAUCCUUAAUAAUUAAACUUUGGAUUUGUUAAAUACUGCCUUGAUGUGAAGGAGGGGAAUUAAGGUUUCCAUAAGGUGGAAUUCUCGGGUGCCAA | 0.451 |
| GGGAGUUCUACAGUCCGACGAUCGCCCCCAAUCCAGGAGUACCCCCCUUGCCACCAAGUCUCCUUUAUUGCCUGCCUCUGCUGUGAAUUAACUUGUUCUGUGUAUUAAACUGGGCCUGACCCCUCUGCCCACAUGGAAUUCUCGGGUGCCAA | 1.37 |

Block 3 — method: universal PBM; molecule type: double-stranded DNA, one strand shown; sample: in vitro; tested at: 600 nM; direction: higher = stronger binding
Target: Sal-like protein 4, full length isoform A (SALL4, Homo sapiens, UniProt Q9UJQ4, residues 1-1053)
Chain of UniProt Q9UJQ4 (whole entry, looked up): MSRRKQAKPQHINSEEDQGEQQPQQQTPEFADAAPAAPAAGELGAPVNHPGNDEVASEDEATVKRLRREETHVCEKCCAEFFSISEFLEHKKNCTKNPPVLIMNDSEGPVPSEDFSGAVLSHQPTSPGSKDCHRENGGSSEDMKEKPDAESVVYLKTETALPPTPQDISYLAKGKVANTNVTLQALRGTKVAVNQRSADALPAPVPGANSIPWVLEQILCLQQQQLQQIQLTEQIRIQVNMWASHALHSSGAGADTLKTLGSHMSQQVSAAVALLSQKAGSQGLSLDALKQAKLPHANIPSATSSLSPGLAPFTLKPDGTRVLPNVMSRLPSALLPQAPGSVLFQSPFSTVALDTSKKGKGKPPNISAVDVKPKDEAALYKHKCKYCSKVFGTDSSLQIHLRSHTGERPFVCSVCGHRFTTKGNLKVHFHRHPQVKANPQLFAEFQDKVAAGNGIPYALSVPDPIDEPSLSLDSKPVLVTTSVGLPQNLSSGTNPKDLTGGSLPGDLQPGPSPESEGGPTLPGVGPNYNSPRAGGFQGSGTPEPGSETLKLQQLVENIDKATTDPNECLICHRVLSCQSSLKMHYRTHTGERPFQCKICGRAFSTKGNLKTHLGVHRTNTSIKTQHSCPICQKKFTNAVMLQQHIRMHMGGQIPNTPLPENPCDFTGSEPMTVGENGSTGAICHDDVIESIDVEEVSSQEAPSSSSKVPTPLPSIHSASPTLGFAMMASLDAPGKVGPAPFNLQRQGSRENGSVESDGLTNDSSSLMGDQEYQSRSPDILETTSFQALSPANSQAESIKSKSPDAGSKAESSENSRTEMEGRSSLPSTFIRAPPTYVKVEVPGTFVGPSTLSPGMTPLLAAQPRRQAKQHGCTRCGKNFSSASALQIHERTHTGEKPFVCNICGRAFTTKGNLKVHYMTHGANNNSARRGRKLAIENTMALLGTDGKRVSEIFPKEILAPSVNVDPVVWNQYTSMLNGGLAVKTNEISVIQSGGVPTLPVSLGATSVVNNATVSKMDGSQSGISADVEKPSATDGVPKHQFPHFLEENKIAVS
Notes: 8-mer, flanks averaged, mean of replicates
| Sequence | E-score |
| --- | --- |
| GATTAAGC | 0.142 |
| AGTTTGAT | 0.103 |
| ACGCAGGG | -0.191 |
| ACCCCGTC | -0.392 |
| ATCGCCAC | -0.0984 |
| CTGACTAC | -0.0572 |
| CACTTCGA | -0.0475 |
| AATCGCAT | 0.0591 |
| TCCAGTAA | 0.0899 |
| ACCTACAC | -0.00765 |
| AAATTAGG | 0.197 |
| CCCCTTAC | -0.146 |
| AGAACGGG | -0.0832 |
| ACAGTGCT | 0.0135 |
| ACTGCAGT | -0.21 |
| CAATTCCC | 0.0666 |
| ATCCTACC | -0.188 |
| ACCGGGCC | -0.393 |
| CGGCACGA | -0.278 |
| AGTAGATC | 0.11 |
| CGTCGTAG | -0.115 |

Block 4 — method: protein-binding microarray; molecule type: double-stranded DNA, one strand shown; sample: in vitro; tested at: 2200 nM top; notes: 60-bp whole probe; together with: salmon DNA 0.4 mg/ml; baseline: random background probes; direction: higher = stronger binding; shared flanks, not repeated: GCCTAGCAC … GTCTTGATTCGCTTGACGCTGCTG
Target: Interferon regulatory factor 7, full length, phosphomimetic (IRF7, Homo sapiens, UniProt Q92985, residues 1-503, S471D/S472D/S475D/S476D/S477D/S483D/S484D/S487D)
Chain of UniProt Q92985 (whole entry, unmodified, looked up): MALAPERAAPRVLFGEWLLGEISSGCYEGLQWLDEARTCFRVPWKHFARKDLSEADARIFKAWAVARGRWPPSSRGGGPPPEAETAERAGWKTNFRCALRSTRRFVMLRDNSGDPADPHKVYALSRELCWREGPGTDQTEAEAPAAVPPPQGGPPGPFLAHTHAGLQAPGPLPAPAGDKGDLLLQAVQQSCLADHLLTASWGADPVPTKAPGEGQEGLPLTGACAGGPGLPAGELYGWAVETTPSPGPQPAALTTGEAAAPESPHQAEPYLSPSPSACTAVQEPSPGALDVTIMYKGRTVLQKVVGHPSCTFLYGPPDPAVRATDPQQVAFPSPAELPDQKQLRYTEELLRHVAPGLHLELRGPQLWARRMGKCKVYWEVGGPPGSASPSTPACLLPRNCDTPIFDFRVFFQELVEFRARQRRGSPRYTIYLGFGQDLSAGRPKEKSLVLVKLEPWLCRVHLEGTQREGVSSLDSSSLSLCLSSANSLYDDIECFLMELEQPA
| Sequence | fitted relative affinity [z-score] |
| --- | --- |
| GGGAACTTAAACCTCTAAAGGTGCTAG | -0.968 |
| AACCATTTTGTTTTTCATTAGTGCTAG | 2.05 |
| TACGGACTGGACTATCGGGACGTGCTA | -0.708 |
| TTAGGTATCTGTCTCGGTTAGTGCTAG | 0.847 |
| TGGCACCTCTAGACTCTAAATGTGCTA | -0.465 |
| GACGATATCGGGTATCTAGACGTGCTA | 0.209 |
| CTGCAGCCCACTCCTGAACAGTGCTAG | -0.0682 |
| AACGGTCTCGGACTGGGGACGTGCTAG | -0.405 |
| GACGGTCTCCTTTTCCTGAGGTGCTAG | 0.898 |
| TCAATCCTCTCACCTCAGACTGTGCTA | 1.15 |
| TGGGTTGTAGGTTTTCTGAAGGTGCTA | 0.284 |
| TCAGCTGTGGGTTTGAGACTGTGCTAG | -0.429 |
| TTAGGTATCAGACTGGGTTAGTGCTAG | -0.106 |
| TTAGGACTGGGAATCGGTTAGTGCTAG | -0.246 |
| GACGATTTCAGTTCCGAGGCGTGCTAG | 1.67 |
| TACGGTTTCCTTATCCTGACGTGCTAG | 3.28 |
| TTAGGTTTCGGGACTGGATTAGTGCTA | 3.01 |
| TTAGGACTGGACATTGGGTTAGTGCTA | -0.481 |
| TCAGTCCTCACTTCCTTCTGGTGCTAG | 2.39 |
| TTAGATATCAGTACCGATTAGTGCTAG | 0.178 |
| TTAGGTTTCACTTTCCAAAAGTGCTAG | 7.01 |
| TCACATCTCTCTTAAATACTGTGCTAG | 1.36 |
| TTAGATTTCAGTTACGATTAGTGCTAG | 0.663 |
| TTAGTACTGAGTTTCGATTAGTGCTAG | 4.3 |
| GACGGTATCGGTATCGGGGCGTGCTAG | 0.23 |

Some of these lines once more (block 4):
| Sequence | fitted relative affinity [z-score] |
| --- | --- |
| AACCATTTTGTTTTTCATTAGTGCTAG | 2.05 |
| GACGGTCTCCTTTTCCTGAGGTGCTAG | 0.898 |
| TTAGGTTTCACTTTCCAAAAGTGCTAG | 7.01 |
| TTAGTACTGAGTTTCGATTAGTGCTAG | 4.3 |
| TCAGCTGTGGGTTTGAGACTGTGCTAG | -0.429 |
